Measurements gathered from unrelated publications.
Organism: Staphylococcus aureus

For `CN[C@H](CC(C)C)C(=O)N[C@H]1C(=O)N[C@@H](CC(N)=O)C(=O)N[C@H]2C(=O)N[C@H]3C(=O)N[C@H](C(=O)N[C@H](C(=O)NCC(N)=O)c4cc(O)cc(O)c4-c4cc3ccc4O)[C@H](O)c3ccc(c(Cl)c3)Oc3cc2cc(c3O[C@@H]2O[C@H](CO)[C@@H](O)[C@H](O)[C@H]2O[C@H]2C[C@](C)(NCc3ccc(OCc4cn(CC(=O)N[C@H](C(=O)N[C@@H](CCN)C(=O)N[C@H]5CCNC(=O)[C@H]([C@@H](C)O)NC(=O)[C@H](CCN)NC(=O)[C@H](CCN)NC(=O)[C@H](CC(C)C)NC(=O)[C@@H](CC(C)C)NC(=O)[C@H](CCN)NC5=O)[C@@H](C)O)nn4)c(OC)c3)[C@H](O)[C@H](C)O2)Oc2ccc(cc2Cl)[C@H]1O`, the MIC was 2 µg/mL (broth microdilution; VISA LIM-2, tryptic soy broth; 20 to 24 h, 37 °C, 0.002% polysorbate 80).
With `c1ccc(CCNC2CCCc3c2[nH]c2ccc(C4CCCCC4)cc32)cc1` (stereo not shown) the MIC was 2 µg/mL (broth microdilution; USA300 JE2 MRSA).
With `CCCCCCCC[C@@H]1NC(=O)[C@@H](CCCN)NC(=O)[C@@H](NC(=O)[C@@H](NC(=O)[C@@H](CCC(=O)O)NC(=O)[C@H](CC(C)C)NC(=O)[C@@H]2CSC([C@@H](N)[C@@H](C)CC)=N2)[C@@H](C)CC)CCCCNC(=O)[C@H](CC(N)=O)NC(=O)[C@@H](CC(=O)O)NC(=O)[C@H](Cc2c[nH]cn2)NC(=O)[C@@H](Cc2ccccc2)NC1=O` the MIC was 2 µg/mL (USA300 MRSA; together with: ZnSO4 0.3 mM).
`CC(C)C[C@H](NC(=O)[C@H](CCCCN)NC(=O)[C@H](CC(C)C)NC(=O)[C@H](CCCCN)NC(=O)C1CCCC=CCCC(NC(=O)[C@H](CCCCN)NC(=O)[C@H](CC(C)C)NC(=O)[C@H](CCCCN)NC(=O)[C@@H](N)CC(C)C)C(=O)N[C@@H](CCCCN)C(=O)N2CCC[C@@H]2C(=O)NCC(=O)N[C@@H](CCCCN)C(=O)N1)C(N)=O` (stereo partly shown) has an MIC of 64 µM (broth microdilution; ATCC 29737, Mueller-Hinton broth; 18 h, 37 °C).
`N=C(N)NCCC[C@@H]1NC(=O)[C@H](CCCNC(=N)N)NC(=O)[C@H](CCCNC(=N)N)NC(=O)[C@@H](CCCNC(=N)N)NC(=O)[C@H](Cc2ccc3ccccc3c2)NC(=O)[C@H](Cc2ccc3ccccc3c2)NC(=O)[C@H](Cc2ccc3ccccc3c2)NC1=O` gave an MIC of 4 µg/mL (1195201, multidrug-resistant).
With `CC(C)C[C@@H](NC(=O)[C@@H](CCCNC(=N)N)NC(=O)[C@H](N)CCCNC(=N)N)C(=O)N[C@H](CC(C)C)C(=O)N[C@H](CCCNC(=N)N)C(=O)N[C@H](CCCCN)C(=O)N[C@H](CC(C)C)C(=O)N[C@H](CCCCN)C(=O)NCC(=O)N[C@H](CCCCN)C(=O)N[C@H](CCCCN)C(=O)N[C@H](CC(C)C)C(=O)N[C@H](Cc1ccc(O)cc1)C(=O)N[C@H](CC(C)C)C(=O)N[C@H](Cc1ccc(O)cc1)C(=O)N[C@H](Cc1ccccc1)C(=O)N[C@H](CCCCN)C(=O)N[C@H](CC(C)C)C(=O)N[C@H](CCC(N)=O)C(=O)N[C@H](CC(C)C)C(=O)N[C@H](CC(C)C)C(=O)N[C@H](CCCCN)C(=O)N[C@H](CCCCN)C(N)=O` the MIC was 8 µM (broth microdilution; KCTC 1621, Mueller-Hinton broth; no added salt).
The MIC of `CC[C@H](C)[C@H](NC(=O)[C@@H](CCCNC(=N)N)NC(=O)[C@H](CCCNC(=N)N)NC(=O)[C@H](CC(C)C)NC(=O)[C@H](Cc1c[nH]c2ccccc12)NC(=O)[C@H](CCCNC(=N)N)NC(=O)[C@@H]1CCCN1C(=O)[C@H](CCCNC(=N)N)NC(=O)[C@@H]1CCCN1C(=O)[C@H](CC(C)C)NC(=O)[C@H](Cc1ccc(O)cc1)NC(=O)[C@@H]1CCCN1C(=O)[C@@H]1CCCN1C(=O)[C@H](CCCCN)NC(=O)[C@H](CC(=O)O)NC(=O)[C@@H](N)C(C)C)C(=O)N[C@@H](Cc1ccc(O)cc1)C(=O)N[C@@H](CC(N)=O)C(=O)N[C@H](CCCNC(=N)N)C(N)=O` is reported as 64 µg/mL (broth microdilution; DSM 6247; 18 h, 37 °C, 25% MHB2).
For `N=C(N)NCCC[C@H](NC(=O)[C@H](CCCNC(=N)N)NC(=O)[C@H](CCCNC(=N)N)NC(=O)[C@H](CCC(N)=O)NC(=O)[C@H](CCCNC(=N)N)NC(=O)[C@H](CCCNC(=N)N)NC(=O)[C@H](CCCCN)NC(=O)[C@H](CCCCN)NC(=O)[C@H](CCCNC(=N)N)NC(=O)CNC(=O)[C@@H](N)Cc1ccc(O)cc1)C(=O)O`, the MIC was > 128 µM (broth microdilution; drug-resistant clinical isolates, Mueller-Hinton broth; 18 to 20 h, 37 °C).
The MIC of `CC[C@H](C)[C@@H]1NC(=O)[C@H](CO)NC(=O)C(C)(CCCCN)NC(=O)[C@@H]2CSSC[C@@H](C(=O)N[C@@H](Cc3ccc(O)cc3)C(N)=O)NC(=O)[C@H](CCCCN)NC(=O)[C@@H]3CSSC[C@H](NC(=O)[C@H](CCCNC(=N)N)NC(=O)C(C)(CC(C)C)NC(=O)[C@H](CC(=O)O)NC(=O)[C@H](CC(=O)O)NC(=O)[C@H](CCC(=O)O)NC(=O)[C@H](CC(N)=O)NC(=O)[C@H](Cc4c[nH]c5ccccc45)NC(=O)[C@@H]4CCCN4C(=O)CNC(=O)[C@H](CC(N)=O)NC(=O)[C@@H](NC(=O)CNC(=O)[C@H](Cc4ccccc4)NC(=O)CN)CSSC[C@H](NC(=O)[C@H](Cc4ccc(O)cc4)NC(=O)CNC(=O)CNC(=O)[C@H](CCCCN)NC(=O)[C@H](Cc4ccc(O)cc4)NC(=O)CNC(=O)[C@H](CCCCN)NC1=O)C(=O)N[C@@H](C)C(=O)N[C@@H](CCCCN)C(=O)NCC(=O)NCC(=O)N[C@@H](Cc1ccccc1)C(=O)N[C@@H](C(C)C)C(=O)N3)C(=O)N[C@@H](Cc1c[nH]cn1)C(=O)NC(C)(C)C(=O)N[C@@H](Cc1c[nH]cn1)C(=O)N2` (stereo partly shown) is reported as 0.5 µM (469, methicillin-resistant mecA, cation-adjusted Mueller Hinton broth; 18 h, 37 °C).
For `COc1ccc2ccc(O)c(/C=N/[C@H]3CCCC[C@H]3/N=C/c3c(O)cccc3OC)c2c1`, the MIC was > 40 µM (bacterial growth, broth microdilution; vancomycin-intermediate).
For `CC1CCN(C(=O)c2cccc(NC(=O)Nc3cc(Cl)cc(Cl)c3)c2)CC1`, the MIC was > 64 µg/mL (checkerboard, measured: ceftobiprole; CRB, PBP4 overexpressor; 25 µM).
The MIC of `CC[C@H](C)[C@H](NC(=O)[C@H](CC(C)C)NC(=O)[C@H](CCCNC(=N)N)NC(=O)CNC(=O)CNC(=O)[C@H](CCCCN)NC(=O)[C@H](CCCNC(=N)N)NC(=O)[C@H](CC(C)C)NC(=O)[C@H](CC(C)C)NC(=O)[C@H](CCCNC(=N)N)NC(=O)[C@@H](NC(=O)[C@H](CC(C)C)NC(=O)[C@@H](N)CO)[C@@H](C)O)C(=O)NCC(=O)N[C@@H](Cc1c[nH]c2ccccc12)C(=O)N[C@@H](CCCNC(=N)N)C(=O)N[C@@H](Cc1c[nH]c2ccccc12)C(=O)N[C@@H](CCC(=O)O)C(=O)N[C@@H](CCCCN)C(=O)N[C@H](C(=O)N[C@@H](CCCNC(=N)N)C(=O)N[C@@H](CC(N)=O)C(=O)N[C@@H](Cc1c[nH]c2ccccc12)C(=O)N[C@H](C(=O)N[C@@H](CCCNC(=N)N)C(=O)N[C@@H](CCCNC(=N)N)C(=O)N[C@H](C(=O)N[C@H](C(=O)N[C@@H](CCC(=O)O)C(=O)N[C@@H](CCCCN)C(=O)N[C@@H](CCCNC(=N)N)C(=O)N[C@@H](CCCCN)C(=O)N1CCC[C@H]1C(=O)N[C@@H](CC(N)=O)C(=O)N[C@@H](CCCCN)C(=O)O)[C@@H](C)CC)[C@@H](C)CC)[C@@H](C)CC)[C@@H](C)O` is reported as 17.6 µg/mL (broth microdilution; ATCC 29213, Mueller-Hinton broth; 16 to 20 h, 37 °C).
`CC(C)CCCCCCCCC/C=C/C(=O)N[C@@H](CC(N)=O)C(=O)N[C@H]1CNC(=O)[C@@H]2CCCN2C(=O)[C@H](C(C)C)NC(=O)[C@@H](CN)NC(=O)CNC(=O)[C@H](CC(=O)O)NC(=O)CNC(=O)[C@H](CC(=O)O)NC(=O)[C@H](CC(=O)O)NC(=O)[C@H]2CCCCN2C1=O` has an MIC of 2 µg/mL (broth microdilution; BR-VRSA strain 880, Mueller-Hinton broth, Mg2+ 10 mg/L; 16 h, together with: Ca2+ 2.5 mM).
`CN[C@@H]1[C@H](O)[C@H](NC)[C@H]2O[C@]3(O)[C@H](O[C@@H]2[C@H]1O)O[C@H](C)C[C@H]3NC(=O)Cc1cscn1` gave an MIC of 50 µg/mL (microbial growth, broth dilution; 8325).
With `CN[C@H](CC(C)C)C(=O)N[C@H]1C(=O)N[C@@H](CC(N)=O)C(=O)N[C@H]2C(=O)N[C@H]3C(=O)N[C@H](C(=O)N[C@H](C(=O)N[C@@H](CCCNC(=N)N)C(N)=O)c4cc(O)cc(O)c4-c4cc3ccc4O)[C@H](O)c3ccc(c(Cl)c3)Oc3cc2cc(c3O[C@@H]2O[C@H](CO)[C@@H](O)[C@H](O)[C@H]2O[C@H]2C[C@](C)(NCc3ccc(OCc4cn(CC(=O)N[C@H](C(=O)N[C@@H](CCN)C(=O)N[C@H]5CCNC(=O)[C@H]([C@@H](C)O)NC(=O)[C@H](CCN)NC(=O)[C@H](CCN)NC(=O)[C@H](CC(C)C)NC(=O)[C@@H](CC(C)C)NC(=O)[C@H](CCN)NC5=O)[C@@H](C)O)nn4)c(OC)c3)[C@H](O)[C@H](C)O2)Oc2ccc(cc2Cl)[C@H]1O` the MIC was 0.358 µM (MRSA USA300).
`CC1COC2=C1C(=O)C(=O)c1c2ccc2c1C(OC(=O)CNC(=O)C(N)CO)CCC2(C)C` (mixture of isomers) has an MIC of 31 µM (GDMCC 1.122; 48 h).
For `CN[C@H](CC(C)C)C(=O)N[C@H]1C(=O)N[C@@H](CC(N)=O)C(=O)N[C@H]2C(=O)N[C@H]3C(=O)N[C@H](C(=O)N[C@H](C(=O)NCc4cn(CC(=O)N[C@H](C(=O)N[C@@H](CCN)C(=O)N[C@H]5CCNC(=O)[C@H]([C@@H](C)O)NC(=O)[C@H](CCN)NC(=O)[C@H](CCN)NC(=O)[C@H](CC(C)C)NC(=O)[C@@H](CC(C)C)NC(=O)[C@H](CCN)NC5=O)[C@@H](C)O)nn4)c4cc(O)cc(O)c4-c4cc3ccc4O)[C@H](O)c3ccc(c(Cl)c3)Oc3cc2cc(c3O[C@@H]2O[C@H](CO)[C@@H](O)[C@H](O)[C@H]2O[C@H]2C[C@](C)(N)[C@H](O)[C@H](C)O2)Oc2ccc(cc2Cl)[C@H]1O`, the MIC was 13 µM (VRSA 2 vanA).
With `CC[C@H](C)[C@H](NC(=O)CNC(=O)[C@H](CC(=O)O)NC(=O)[C@H](CCCNC(=N)N)NC(=O)[C@@H](NC(=O)[C@H](Cc1c[nH]cn1)NC(=O)[C@H](CCC(N)=O)NC(=O)CNC(=O)[C@@H](NC(=O)[C@H](CCCNC(=N)N)NC(=O)[C@H](CCC(=O)O)NC(=O)[C@@H](NC(=O)[C@H](CCCCN)NC(=O)[C@H](CCCCN)NC(=O)[C@H](Cc1ccccc1)NC(=O)[C@@H](NC(=O)[C@H](CCCCN)NC(=O)[C@H](Cc1c[nH]c2ccccc12)NC(=O)[C@@H](N)CCCCN)[C@@H](C)CC)[C@@H](C)CC)C(C)C)C(C)C)C(=O)N[C@H](C(=O)N[C@@H](CCCCN)C(=O)N[C@@H](C)C(=O)NCC(=O)N[C@@H](CO)C(=O)N[C@@H](C)C(=O)N[C@H](C(=O)N[C@@H](CCC(N)=O)C(=O)N[C@H](C(=O)N[C@H](C(=O)NCC(=O)N[C@@H](CCC(N)=O)C(=O)N[C@@H](C)C(=O)N[C@@H](C)C(=O)N[C@@H](C)C(=O)N[C@H](C(=O)N[C@@H](C)C(=O)N[C@@H](CCCCN)C(N)=O)[C@@H](C)CC)C(C)C)C(C)C)C(C)C)[C@@H](C)CC` the MIC was > 8 µM (broth microdilution; 18 h, 37 °C).
`CC[C@H](C)[C@H](NC(=O)[C@@H](CCCNC(=N)N)NC(=O)[C@H](CCCNC(=N)N)NC(=O)[C@@H]1CCCN1C(=O)[C@@H]1CCCN1C(=O)[C@H](CCCNC(=N)N)NC(=O)[C@@H]1CCCN1C(=O)[C@H](CCCNC(=N)N)NC(=O)[C@@H]1CCCN1C(=O)[C@H](CC(C)C)NC(=O)[C@H](Cc1c[nH]c2ccccc12)NC(=O)[C@@H]1CCCN1C(=O)[C@@H]1CCCN1C(=O)[C@H](CCCCN)NC(=O)[C@H](CC(=O)O)NC(=O)[C@@H](N)C(C)C)C(=O)N[C@@H](Cc1ccc(O)cc1)C(=O)N[C@@H](CC(N)=O)C(=O)N[C@H](CCCNC(=N)N)C(N)=O` gave an MIC of 128 µg/mL (broth microdilution; DSM 6247; 18 h, 37 °C, 25% MHB2).
